Published values gathered from unrelated publications.
Protocols differ between the studies behind these lines. “And” joins repeats or separate records; there may be more than shown. ± marks the error that the study gave.
KEAP1 Kelch domain: Kelch-like ECH-associated protein 1, Kelch domain (KEAP1, Homo sapiens, UniProt Q14145)
UniProt Q14145, sequence (whole entry, looked up): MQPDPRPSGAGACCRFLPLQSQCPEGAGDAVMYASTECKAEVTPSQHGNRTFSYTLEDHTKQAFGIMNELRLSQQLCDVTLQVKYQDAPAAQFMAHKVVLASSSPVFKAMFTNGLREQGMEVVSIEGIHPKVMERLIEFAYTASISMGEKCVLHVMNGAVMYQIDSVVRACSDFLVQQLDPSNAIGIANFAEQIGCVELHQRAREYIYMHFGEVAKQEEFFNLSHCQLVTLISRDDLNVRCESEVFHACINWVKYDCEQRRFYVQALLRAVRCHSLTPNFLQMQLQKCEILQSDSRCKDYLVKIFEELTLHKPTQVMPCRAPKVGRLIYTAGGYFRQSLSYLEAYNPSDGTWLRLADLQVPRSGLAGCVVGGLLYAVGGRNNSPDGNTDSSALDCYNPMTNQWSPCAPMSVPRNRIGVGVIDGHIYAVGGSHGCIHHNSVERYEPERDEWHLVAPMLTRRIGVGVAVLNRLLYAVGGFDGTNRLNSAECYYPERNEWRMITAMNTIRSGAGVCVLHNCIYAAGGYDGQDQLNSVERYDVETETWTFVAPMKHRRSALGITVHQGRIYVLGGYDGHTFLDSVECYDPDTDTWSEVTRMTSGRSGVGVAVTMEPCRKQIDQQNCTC
Dehaloperoxidase B ferric: Dehaloperoxidase B, ferric (Amphitrite ornata, UniProt Q9NAV7)
MT-CYB/UQCRFS1: MT-CYB/UQCRFS1 (Homo sapiens, UniProt P00156+P47985)
UniProt P47985, sequence (whole entry, looked up): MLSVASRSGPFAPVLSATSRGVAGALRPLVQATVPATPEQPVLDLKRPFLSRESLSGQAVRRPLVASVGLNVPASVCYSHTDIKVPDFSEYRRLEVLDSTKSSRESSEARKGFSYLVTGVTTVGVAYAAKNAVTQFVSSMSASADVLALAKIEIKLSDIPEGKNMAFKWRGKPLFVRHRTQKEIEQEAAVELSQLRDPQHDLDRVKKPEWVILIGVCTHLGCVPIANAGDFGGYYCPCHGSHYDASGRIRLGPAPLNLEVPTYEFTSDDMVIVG
UniProt P00156, sequence (whole entry, looked up): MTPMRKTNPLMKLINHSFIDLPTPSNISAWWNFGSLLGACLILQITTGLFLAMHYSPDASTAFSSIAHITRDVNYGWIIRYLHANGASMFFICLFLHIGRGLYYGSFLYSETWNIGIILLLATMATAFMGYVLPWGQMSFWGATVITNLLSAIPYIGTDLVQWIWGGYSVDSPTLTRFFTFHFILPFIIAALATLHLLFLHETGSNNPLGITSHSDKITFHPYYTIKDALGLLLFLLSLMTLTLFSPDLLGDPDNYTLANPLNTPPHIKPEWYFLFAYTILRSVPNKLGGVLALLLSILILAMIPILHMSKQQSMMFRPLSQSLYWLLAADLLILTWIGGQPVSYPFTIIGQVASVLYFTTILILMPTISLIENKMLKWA
TOP2A: DNA topoisomerase 2-alpha (TOP2A, Homo sapiens, UniProt P11388)
UniProt P11388, sequence (whole entry, looked up): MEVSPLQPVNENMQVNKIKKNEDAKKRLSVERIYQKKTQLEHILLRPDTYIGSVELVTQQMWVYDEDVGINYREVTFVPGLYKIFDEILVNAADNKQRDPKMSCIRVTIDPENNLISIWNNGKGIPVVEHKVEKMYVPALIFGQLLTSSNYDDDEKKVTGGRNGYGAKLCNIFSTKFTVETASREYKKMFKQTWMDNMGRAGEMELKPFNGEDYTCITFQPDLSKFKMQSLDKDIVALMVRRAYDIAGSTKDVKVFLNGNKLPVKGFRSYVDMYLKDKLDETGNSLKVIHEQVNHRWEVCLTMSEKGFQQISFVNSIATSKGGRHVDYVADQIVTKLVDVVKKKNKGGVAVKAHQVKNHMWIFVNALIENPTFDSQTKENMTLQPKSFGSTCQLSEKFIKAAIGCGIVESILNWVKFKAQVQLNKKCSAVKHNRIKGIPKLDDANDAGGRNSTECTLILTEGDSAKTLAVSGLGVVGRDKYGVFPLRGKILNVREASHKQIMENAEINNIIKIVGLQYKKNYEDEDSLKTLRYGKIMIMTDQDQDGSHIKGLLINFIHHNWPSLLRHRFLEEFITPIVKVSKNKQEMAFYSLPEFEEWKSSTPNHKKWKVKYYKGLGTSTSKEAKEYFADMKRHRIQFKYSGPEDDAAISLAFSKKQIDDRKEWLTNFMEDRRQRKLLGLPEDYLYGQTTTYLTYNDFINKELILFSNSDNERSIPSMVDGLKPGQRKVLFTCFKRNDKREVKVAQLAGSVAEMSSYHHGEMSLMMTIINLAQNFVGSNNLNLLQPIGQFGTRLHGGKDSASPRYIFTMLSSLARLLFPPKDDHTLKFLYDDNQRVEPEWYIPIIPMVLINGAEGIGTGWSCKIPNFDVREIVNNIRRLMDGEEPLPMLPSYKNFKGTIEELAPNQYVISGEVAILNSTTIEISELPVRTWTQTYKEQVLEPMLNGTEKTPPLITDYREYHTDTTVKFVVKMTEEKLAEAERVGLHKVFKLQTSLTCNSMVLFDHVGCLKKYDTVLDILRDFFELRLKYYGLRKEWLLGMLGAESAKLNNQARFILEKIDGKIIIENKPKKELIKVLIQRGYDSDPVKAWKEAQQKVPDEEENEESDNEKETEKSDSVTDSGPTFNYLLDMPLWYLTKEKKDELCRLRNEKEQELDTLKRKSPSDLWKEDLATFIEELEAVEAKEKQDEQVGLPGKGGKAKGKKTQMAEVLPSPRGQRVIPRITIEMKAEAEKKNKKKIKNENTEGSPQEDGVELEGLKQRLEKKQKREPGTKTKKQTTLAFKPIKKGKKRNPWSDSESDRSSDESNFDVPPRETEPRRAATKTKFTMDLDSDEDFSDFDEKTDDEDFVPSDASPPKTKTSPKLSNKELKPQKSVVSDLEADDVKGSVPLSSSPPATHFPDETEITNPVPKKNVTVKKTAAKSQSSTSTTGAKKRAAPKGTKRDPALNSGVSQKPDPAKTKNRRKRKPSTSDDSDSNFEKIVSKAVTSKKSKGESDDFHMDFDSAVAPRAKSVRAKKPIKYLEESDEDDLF
UniProt Q64663, sequence (whole entry, unmodified, looked up): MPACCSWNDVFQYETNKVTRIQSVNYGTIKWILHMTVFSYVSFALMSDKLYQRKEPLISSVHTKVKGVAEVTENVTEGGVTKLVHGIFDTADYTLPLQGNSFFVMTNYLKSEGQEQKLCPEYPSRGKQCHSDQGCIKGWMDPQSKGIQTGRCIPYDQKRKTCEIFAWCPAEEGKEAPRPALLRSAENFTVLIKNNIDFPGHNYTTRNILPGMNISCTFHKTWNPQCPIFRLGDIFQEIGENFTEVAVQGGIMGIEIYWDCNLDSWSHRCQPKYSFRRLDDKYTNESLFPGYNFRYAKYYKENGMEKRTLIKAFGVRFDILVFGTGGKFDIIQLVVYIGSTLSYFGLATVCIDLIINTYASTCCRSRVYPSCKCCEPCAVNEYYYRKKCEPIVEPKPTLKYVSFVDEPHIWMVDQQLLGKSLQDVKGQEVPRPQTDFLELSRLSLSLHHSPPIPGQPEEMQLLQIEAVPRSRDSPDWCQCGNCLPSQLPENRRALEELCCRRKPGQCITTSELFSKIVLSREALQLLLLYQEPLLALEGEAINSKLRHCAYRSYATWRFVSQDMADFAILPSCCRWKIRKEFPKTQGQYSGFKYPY
UniProt Q16774, sequence (whole entry, unmodified, looked up): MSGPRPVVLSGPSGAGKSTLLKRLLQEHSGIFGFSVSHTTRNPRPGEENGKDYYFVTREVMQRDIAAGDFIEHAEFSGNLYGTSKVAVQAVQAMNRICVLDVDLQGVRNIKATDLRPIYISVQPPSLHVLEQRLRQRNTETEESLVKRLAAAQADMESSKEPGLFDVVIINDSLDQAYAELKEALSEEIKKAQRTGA
UniProt P51575, sequence (whole entry, unmodified, looked up): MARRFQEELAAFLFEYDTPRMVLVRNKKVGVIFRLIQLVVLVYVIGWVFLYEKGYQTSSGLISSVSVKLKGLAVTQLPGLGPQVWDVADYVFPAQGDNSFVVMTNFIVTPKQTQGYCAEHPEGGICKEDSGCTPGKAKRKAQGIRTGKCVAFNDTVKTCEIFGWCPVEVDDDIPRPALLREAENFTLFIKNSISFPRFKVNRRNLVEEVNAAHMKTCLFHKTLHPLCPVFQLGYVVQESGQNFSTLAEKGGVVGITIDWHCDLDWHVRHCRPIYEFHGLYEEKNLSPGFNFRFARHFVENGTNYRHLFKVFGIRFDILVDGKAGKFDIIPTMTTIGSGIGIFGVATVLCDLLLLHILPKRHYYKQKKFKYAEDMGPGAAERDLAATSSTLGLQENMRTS
UniProt Q695T7, sequence (whole entry, looked up): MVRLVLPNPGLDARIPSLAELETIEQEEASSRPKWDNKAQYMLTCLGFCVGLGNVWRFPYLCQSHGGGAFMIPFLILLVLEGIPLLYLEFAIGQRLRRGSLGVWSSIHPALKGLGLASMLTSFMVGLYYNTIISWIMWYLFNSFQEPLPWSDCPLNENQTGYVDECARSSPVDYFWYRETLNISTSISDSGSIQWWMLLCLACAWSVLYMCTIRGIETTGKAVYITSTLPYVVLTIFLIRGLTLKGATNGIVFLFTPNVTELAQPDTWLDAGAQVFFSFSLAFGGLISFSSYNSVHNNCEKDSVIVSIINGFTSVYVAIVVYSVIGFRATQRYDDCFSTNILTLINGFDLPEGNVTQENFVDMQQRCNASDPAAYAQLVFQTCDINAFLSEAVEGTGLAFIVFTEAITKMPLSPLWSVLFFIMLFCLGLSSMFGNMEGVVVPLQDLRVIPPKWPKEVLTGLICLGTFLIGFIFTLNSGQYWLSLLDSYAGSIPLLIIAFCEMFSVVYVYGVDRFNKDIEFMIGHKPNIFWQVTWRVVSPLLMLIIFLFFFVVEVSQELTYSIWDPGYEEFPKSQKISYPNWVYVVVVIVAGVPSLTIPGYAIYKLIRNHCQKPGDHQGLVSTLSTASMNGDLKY
UniProt Q8K3Y3, sequence (whole entry, looked up): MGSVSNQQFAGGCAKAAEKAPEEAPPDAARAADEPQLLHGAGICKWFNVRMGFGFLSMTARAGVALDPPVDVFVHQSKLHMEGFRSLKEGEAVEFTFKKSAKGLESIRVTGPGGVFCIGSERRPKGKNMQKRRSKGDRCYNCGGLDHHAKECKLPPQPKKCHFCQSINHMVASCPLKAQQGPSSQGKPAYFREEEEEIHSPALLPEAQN

C=CC(=O)N1CCC[C@@H](n2nc(-c3ccc(Oc4ccccc4)cc3)c3c(N)ncnc32)C1 — remaining activity (Tyrosine-protein kinase ZAP-70 (ZAP70, Homo sapiens, UniProt P43403); 1 µM): 356%
CC[C@@H]1[C@H](F)C(=O)N[C@@H]1COc1nccc2cc(C(N)=O)c(OC)cc12 — inhibition (Serine/threonine-protein kinase OSR1 (OXSR1, Homo sapiens, UniProt O95747); ATP-site probe binding, ActivX profiling, item: OSR1; THP-1 cell lysate; 0.04 mM, Lys2 site): -9.1%
CC[C@H](C)[C@H](NC(C)=O)C(=O)N[C@@H](CC(N)=O)C(=O)N[C@H](C(=O)N[C@@H](CCCNC(=N)N)C(=O)N[C@@H](CCCCN)C(=O)N[C@@H](CCCNC(=N)N)C(=O)N[C@@H](CC(N)=O)C(=O)N[C@H](C(=O)N[C@@H](CCC(=O)O)C(=O)N[C@@H](CO)C(=O)NCC(=O)N[C@@H](CCC(=O)O)C(=O)N[C@@H](CCC(=O)O)C(=O)N[C@@H](CCC(=O)O)C(=O)N[C@@H](CC(C)C)C(=O)N[C@@H](C)C(=O)N[C@@H](CO)C(=O)N[C@@H](CCCCN)C(=O)N[C@@H](CC(C)C)C(=O)N[C@@H](CC(=O)O)C(N)=O)C(C)C)C(C)C — binding stoichiometry (KEAP1 Kelch domain; ITC; concentration not given): 1.08
CC(=C/C(=O)O)/C=C/C=C(\C)C1C=C2C(C)(C)CCCC2(C)O1 (stereo not shown) — plasma membrane localization (Rhodopsin (RHO, Homo sapiens, UniProt P08100, P23H); immunostaining, item: opsin; COS-7 transfected; 1.00 µM, unit not given; baseline: surface over total stained cells): 0.08
Nc1ncnc2c1ncn2[C@@H]1O[C@H](COP(=O)(O)CP(=O)(O)OP(=O)(O)O)[C@@H](O)[C@H]1O — specific binding (P2X purinoceptor 1 (P2RX1, Homo sapiens, UniProt P51575, L218T); saturation binding; HEK293; 1 nM): 108 CCPM and 102 CCPM
O=C1Nc2ccc(Br)cc2C1=O — share of total products (Dehaloperoxidase B ferric; product, HPLC; with: 5-bromoindole 500 µM, H2O2 50 µM): 4.2%
O=C(O)CCCc1cc2cc(Cl)ccc2n1S(=O)(=O)c1ccc2ncsc2c1 — Emax (Peroxisome proliferator-activated receptor alpha (Rattus norvegicus, UniProt P37230); receptor activation, agonist; species rat; baseline: internal control agonist): 37%
CC(=O)N[C@@H](C)C(=O)N[C@@H](CC(N)=O)C(=O)NCC(=O)N[C@@H](CC(N)=O)C(=O)N[C@@H](C)C(=O)N[C@@H](CCC(=O)O)C(=O)N[C@@H](CC(N)=O)C(=O)N[C@@H](CCC(=O)O)C(=O)N[C@@H](CCC(=O)O)C(=O)N[C@@H](CC(N)=O)C(=O)NCC(=O)N[C@@H](CCC(=O)O)C(=O)N[C@@H](CCC(N)=O)C(=O)N[C@@H](CCC(=O)O)C(=O)N[C@@H](C)C(=O)N[C@@H](CC(=O)O)C(=O)N[C@@H](CC(N)=O)C(=O)N[C@@H](CCC(=O)O)C(=O)N[C@H](C(=O)N[C@@H](CC(=O)O)C(N)=O)C(C)C — ΔG (KEAP1 Kelch domain; binding, ITC; pH 7, 298.15 K): -6.66 ± 0.07 kcal/mol
CCNC(=O)/C=C/c1cccc(Br)c1 — remaining transport activity (Sodium-dependent neutral amino acid transporter B(0)AT1 (SLC6A19, Homo sapiens, UniProt Q695T7); inhibitor, FLIPR membrane potential; CHO-BC cells; 3 µM, unit not given; baseline: no inhibitor): 0.241
Nc1nc2c(ncn2[C@@H]2O[C@H](COP(=O)(O)O)[C@@H](O)[C@H]2O)c(=O)[nH]1 — reaction rate (GUK1 (Homo sapiens, UniProt Q16774, T83A); enzyme activity, NADH-coupled; 7.812 µM): 3.94 s⁻¹ and 3.24 s⁻¹ and 2.78 s⁻¹
O=C(O[C@@H]1[C@@H](O)[C@H](Oc2cc(O)c3c(c2)O[C@H](c2ccccc2)CC3=O)O[C@@H]2COC(=O)c3cc(O)c(O)c(O)c3-c3c(cc(O)c(O)c3O)C(=O)O[C@@H]12)c1cc(O)c(O)c(O)c1 — MPB binding (Protein disulfide-isomerase (P4HB, Homo sapiens, UniProt P07237); inhibitor, maleimide-PEG-biotin labelling; concentration not given, compound preincubation): no effect
Cc1cccc(N(O)N=Nc2ccc(S(=O)(=O)Nc3onc(C)c3C)cc2)c1 — inhibition (α-glucosidase, rat intestine; enzyme activity; 120 µg/mL, with: 4-nitrophenyl α-D-glucopyranoside): 22.5 ± 1.54%
O=C(O)c1ccc(Nc2ncc3c(n2)-c2ccc(Cl)cc2C(c2c(F)cccc2F)=NC3)cc1 — remaining activity (Fgr(h); kinase activity; 1 µM): 36%
CC[C@H](C)[C@@H]1NC(=O)[C@H](C)NC(=O)[C@H]([C@@H](C)CC)NC(=O)[C@H](CCC(N)=O)NC(=O)[C@H](C)NC(=O)[C@H](CCCNC(=N)N)NC(=O)[C@H](C(C)C)NC(=O)[C@H](CC(C)C)NC(=O)[C@H](CCC(=O)O)NC(=O)[C@H](CCCNC(=N)N)NC(=O)CNC(=O)[C@@H](NC(=O)[C@H](CC(C)C)NC(=O)[C@H](CCCCN)NC(=O)[C@@H](NC(=O)[C@@H](NC(=O)[C@H](CCC(=O)O)NC(=O)[C@H](CCC(=O)O)NC(=O)[C@H](CCSC)NC(=O)[C@H](Cc2c[nH]c3ccccc23)NC(=O)[C@H](CO)NC(=O)[C@@H](N)CC(=O)O)C(C)C)[C@@H](C)CC)CSSC[C@@H]2NC(=O)[C@@H](NC(=O)[C@H](CCCCN)NC(=O)[C@H](CC(N)=O)NC(=O)[C@H](C)NC(=O)[C@H](CC(C)C)NC(=O)[C@H](C)NC(=O)[C@H](CO)NC(=O)[C@H](Cc3ccc(O)cc3)NC(=O)[C@H](CC(C)C)NC(=O)[C@H](CCC(N)=O)NC(=O)c3ccc(-c4c5ccc(=[N+](C)C)cc-5oc5cc(N(C)C)ccc45)c(C(=O)[O-])c3)CSSC[C@H](NC(=O)CNC(=O)[C@H](C(C)C)NC(=O)[C@H](Cc3c[nH]cn3)NC2=O)C(=O)N[C@@H]([C@@H](C)O)C(=O)N[C@@H](CCCCN)C(=O)N[C@@H](CCCNC(=N)N)C(=O)N[C@@H](CO)C(=O)N[C@@H](CC(C)C)C(=O)N[C@@H](C)C(=O)N[C@@H](CCCNC(=N)N)C(=O)N[C@@H](Cc2ccccc2)C(=O)N[C@H](C(=O)O)CSSC[C@@H](C(=O)NCC(=O)N[C@@H](CCSC)C(=O)N[C@@H](CO)C(=O)N[C@H](C(=O)N[C@@H](Cc2c[nH]c3ccccc23)C(=O)N[C@@H](CO)C(=O)O)[C@@H](C)O)NC1=O — fast dissociation fraction (Relaxin receptor 1 (RXFP1, Homo sapiens, UniProt Q9HBX9, F76A/Y80A); binding, NanoBRET; concentration not given, with: relaxin 1 µM): 64.6%
NC(=O)NOCCCCCCCCCCCC[P+](c1ccccc1)(c1ccccc1)c1ccccc1.O=C([O-])C(F)(F)F — oxygen consumption rate (MT-CYB/UQCRFS1; complex III-dependent respiration, Seahorse XF96; HCT-116; 1.5 µM, 24 h; baseline: control): 74 ± 2%
O=c1nc(SCc2cc(F)cc(C(F)(F)F)c2)nc(SCc2ccc3nc(Cl)ccc3c2)[nH]1 — ATP hydrolysis rate (TOP2A; ATPase activity; 125 µM, with: ATP 0.75 mM): 2.55 µM/min and 0.322 µM/min
O=C1C=Nc2ccc(Br)cc21 — share of total products (Dehaloperoxidase B ferric; product, HPLC; with: 5-bromoindole 500 µM, H2O2 500 µM): 49.2%
NC(=O)NO — oxygen consumption rate (MT-CYB/UQCRFS1; complex III-dependent respiration, Seahorse XF96; HCT-116; 500 µM, 24 h; baseline: control): 88.9 ± 7.09%
COc1ccc2cc1Oc1ccc(cc1)C[C@H]1c3cc(c(OC)cc3CCN1C)Oc1c(OC)c(OC)cc3c1[C@H](C2)N(C)CC3 — tail current (PKD2L1 (Homo sapiens, UniProt Q9P0L9, F514A); ion current, patch clamp; concentration not given): inhibited
NC(=O)NOCCCCCCCCCCCCCCCC[P+](c1ccccc1)(c1ccccc1)c1ccccc1.O=C([O-])C(F)(F)F — oxygen consumption rate (MT-CYB/UQCRFS1; complex III-dependent respiration, Seahorse XF96; HCT-116; 0.3 µM, 24 h; baseline: control): 94.2%
Nc1ncnc2c1ncn2[C@@H]1O[C@H](COP(=O)(O)OP(=O)(O)OP(=O)(O)O)[C@@H](O)[C@H]1O — normalized current (P2X purinoceptor 7 (P2rx7, Rattus norvegicus, UniProt Q64663); ion current, agonist, two-electrode voltage clamp; Xenopus laevis oocytes; 11 µM; baseline: highest concentration response): 0.11 and 0.16 and 0.05
O=S(=O)(O)C1CCNCC1 — normalised MST signal (Sodium- and chloride-dependent taurine transporter (SLC6A6, Homo sapiens, UniProt P31641, Y138A); binding, microscale thermophoresis; 15.6 µM, room temperature, with: 50 nM labelled protein; higher = more binding): -0.0326
O=c1nc(SCc2ccc(C(F)(F)F)cc2)nc(SCc2csc3ccc(Cl)cc23)[nH]1 — mean relaxed DNA (TOP2A; DNA relaxation; 1.95 µM): 93.2%
Oc1ccc(/C=C/c2cc(O)cc(O)c2)cc1 — cooperativity factor (O-methyltransferase (Sorghum bicolor, UniProt A0A1B6PFV1); with: adenine 1 mM): 0.63
O=C(O)[C@@H]1CCCN1c1ncnc2[nH]cnc12 (racemic) — log fold enrichment (YTH domain-containing family protein 2 (YTHDF2, Homo sapiens, UniProt Q9Y5A9); binding, affinity selection mass spectrometry; baseline: other proteins in batch): 0.121
NC1=NN(c2ccc(Oc3ccccc3)c(S(=O)(=O)O)c2)C(=O)C1 — Hill slope (Protein lin-28 homolog A (Mus musculus, UniProt Q8K3Y3)): -0.9
CC1=C(/C=C/C(C)=C/C=C/C(C)=C/C=C/C=C(C)/C=C/C=C(C)/C=C/C2=C(C)CCCC2(C)C)C(C)(C)CCC1 — number of binding sites (Beta-lactoglobulin (LGB, Bos taurus, UniProt P02754); fluorescence quenching; concentration not given, 303 K): 1.41
CN(C)C(=O)C(CCN1CCC(O)(c2ccc(Cl)cc2)CC1)(c1ccccc1)c1ccccc1 — normalized Gmax (Calcium-activated potassium channel subunit alpha-1, with LRRC26 γ1 subunit (KCNMA1, Homo sapiens, UniProt Q12791); BK current, inhibitor, inside-out patch clamp; excised membrane patch; 0.3 µM, γ1 coexpressed, individual fits, with: nominally 0 Ca2+ cytosolic; baseline: without loperamide): 0.806 ± 0.039

For quick reference, copied from above:
O=C1Nc2ccc(Br)cc2C1=O — share of total products (Dehaloperoxidase B ferric; product, HPLC; with: 5-bromoindole 500 µM, H2O2 50 µM): 4.2%
CC1=C(/C=C/C(C)=C/C=C/C(C)=C/C=C/C=C(C)/C=C/C=C(C)/C=C/C2=C(C)CCCC2(C)C)C(C)(C)CCC1 — number of binding sites (Beta-lactoglobulin (LGB, Bos taurus, UniProt P02754); fluorescence quenching; concentration not given, 303 K): 1.41
NC(=O)NOCCCCCCCCCCCC[P+](c1ccccc1)(c1ccccc1)c1ccccc1.O=C([O-])C(F)(F)F — oxygen consumption rate (MT-CYB/UQCRFS1; complex III-dependent respiration, Seahorse XF96; HCT-116; 1.5 µM, 24 h; baseline: control): 74 ± 2%
